Experimental data of several laboratories.
Each line is one published result; not all experiments were run side by side. ≈ marks a conversion by molar mass, not a printed value.

For `CC1=C(Cc2cn(CCN3CCN(C(=O)OC(C)(C)C)CC3)nn2)C(=O)c2ccccc2C1=O`, the killing was 33.3% (Schistosoma mansoni; adult worms; 25 µM, 24 h).
For `O=C(O)CNC(=O)Cc1ccccc1`, the sarcomere length was 1.66 µm (ventricular cardiomyocytes, C57BL/6 mouse; dose not given, 0.48 s).
`N#Cc1ccn2c(-c3ccncc3)c(-c3ccc(F)cc3)nc2c1`: “log2 fold change” 0.279 (kinase binding, competitor, MIB/MS competition, measured: CEK1; Candida albicans cell lysate; 1 µM; relative to: DMSO).
Under “phenotypic severity score”, `CN1CCN(c2ccc(-c3ccc4nncc(Nc5ncccn5)c4c3)cc2)CC1` is recorded as 0 (Schistosoma mansoni; adult worms; 10 µM, 24 h; direction not given).
`C[C@H](Oc1ccc(Br)cc1-c1ccon1)C(=O)O`: “difference from placebo” 5.34% (first response peak; human, tibialis anterior muscle; 400 mg, 30-15 Hz, SAD).
`N=C(N)Nc1ccc(C(=O)Oc2ccc3cc(C(=N)N)ccc3c2)cc1` gave an inhibition of -4.3% (Nedd8-cullin1 interaction; neddylation, AlphaScreen; 100 µM).
For `COc1ccc(Nc2cnnc3ccc(-c4cnc(N5CCCN(C)CC5)nc4)cc23)cc1Cl`, “phenotypic severity score” read 1 (Schistosoma mansoni; adult worms; 10 µM, 5 h; direction not given).
Under “log2 fold change”, `Cn1cc(-c2ccc(-c3cncc(Cl)c3N3CCC4(CCNC4=O)CC3)cc2)cn1` is recorded as 1.67 (COLO 205; gene expression, microarray, measured: TUBB3 mRNA; concentration not given, 2 h; relative to: untreated cells).
`CCCOC(=O)c1cc(O)c(O)c(O)c1` has an inhibition of 8.39% (Nedd8-cullin1 interaction; neddylation, AlphaScreen; 100 µM).
With `CC1=C(Cc2cn(CCN3CCC(F)(F)CC3)nn2)C(=O)c2ccccc2C1=O` the killing was 41.3% (Schistosoma mansoni; adult worms; 25 µM, 24 h).
`Cc1c(CN2CCN(C(=O)[C@H](C)O)CC2)sc2c(N3CCOCC3)nc(-c3cnc(N)nc3)nc12` gave an IC50 of 6.6 ng/mL (≈ 0.0132 µM) (phospho-Akt; Akt phosphorylation, inhibitor; human patients with pleural carcinoma, plasma; PK-PD study).
`CC1=C(Cn2ccnc2[N+](=O)[O-])C(=O)c2ccccc2C1=O` gave a killing of 43.5% (Schistosoma mansoni; adult worms; 10 µM, 48 h).
The inhibition of `Cc1cnc(C(=O)O)c[n+]1[O-]` is reported as 97.7% (Nedd8-cullin1 interaction; neddylation, AlphaScreen; 100 µM).
`Cc1n[nH]c2ccc(-c3cc(OC[C@@H](N)Cc4ccccc4)cnc3-c3ccoc3)cc12` — result for “log2 fold change”: -0.539 (kinase binding, competitor, MIB/MS competition, measured: YPK1; Candida albicans cell lysate; 1 µM; relative to: DMSO).
The percent change of `NC(=O)c1cnc2[nH]ccc2c1N[C@@H]1[C@@H]2CC3C[C@H]1C[C@@](O)(C3)C2` is reported as 0.03% (CD4+ effector T cells, flow cytometry; Caucasian humans, peripheral blood; 60 mg single dose; relative to: baseline).
With `CC1=C(Cc2cn(CCN3CCNCC3)nn2)C(=O)c2ccccc2C1=O` the killing was 50% (Schistosoma mansoni; adult worms; 25 µM, 72 h).
Under “phenotypic severity score”, `Cc1ccc(Nc2cnnc3ccc(-c4ccc(N5CCN(C)CC5)cc4)cc23)cn1` is recorded as 2 (Schistosoma mansoni; adult worms; 10 µM, 48 h; direction not given).
For `CC1=C(Cn2ccnn2)C(=O)c2ccccc2C1=O`, the killing was 54.9% (Schistosoma mansoni; adult worms; 25 µM, 72 h).
Under “phenotypic severity score”, `COc1ccc(Nc2cnnc3ccc(-c4cnc(N5CCN(C)CC5)nc4)cc23)cc1` is recorded as 0 (Schistosoma mansoni; adult worms; 10 µM, 1 h; direction not given).
`COc1ccccc1Oc1c(NS(=O)(=O)c2ccc(C(C)(C)C)cc2)nc(-c2ncccn2)nc1OCCO` gave an inhibition of 9.2% (Nedd8-cullin1 interaction; neddylation, AlphaScreen; 100 µM).
The killing of `CC1=C(Cc2cn(CC#N)nn2)C(=O)c2ccccc2C1=O` is reported as 47% (Schistosoma mansoni; adult worms; 25 µM, 72 h).
For `OC(CCN1CCCCC1)(c1ccccc1)C1CC2C=CC1C2` (stereo not shown), “EEG Alpha2-power Pz-O1” read 4.8 µV² (resting-state EEG; healthy elderly humans; oral, 2 mg, eyes closed, LS mean).
`COc1ccc(Nc2cnnc3ccc(-c4ccc(S(=O)(=O)N5CCN(C)CC5)cc4)cc23)cc1Cl` — result for “phenotypic severity score”: 1 (Schistosoma mansoni; adult worms; 10 µM, 48 h; direction not given).
`CC1=C(Cn2cc(C(C)(C)O)nn2)C(=O)c2ccccc2C1=O` gave a killing of 43.9% (Schistosoma mansoni; adult worms; 25 µM, 24 h).
For `Cn1c(NCCN(CCO)CCCc2ccc([N+](=O)[O-])cc2)cc(=O)n(C)c1=O`, the inhibition was 19.6% (Nedd8-cullin1 interaction; neddylation, AlphaScreen; 100 µM).
`C[C@H]1c2cccc(O)c2C(=O)C2=C(O)[C@]3(O)C(=O)C(C(N)=O)=C(O)[C@@H](N(C)C)[C@@H]3[C@@H](O)[C@@H]21` — result for “mice with microfilariae”: 11% (Brugia malayi; SCID mouse; dose not given, 6 weeks post-treatment, dosing x42d).
`Cc1c(C)c2c(c(C)c1OC(=O)c1cccnc1)CCC(C)(CCCC(C)CCCC(C)CCCC(C)C)O2` (mixture of isomers) gave an inhibition of -19.9% (Nedd8-cullin1 interaction; neddylation, AlphaScreen; 100 µM).
Under “phenotypic severity score”, `COc1ccc(Nc2cnnc3cc(-c4ccc(N5CCN(C)CC5)cc4)ccc23)cc1` is recorded as 0 (Schistosoma mansoni; adult worms; 10 µM, 48 h; direction not given).
The sarcomere length of `CC(C)NCC(O)c1ccc(O)c(O)c1` (stereo not shown) is reported as 1.72 µm (ventricular cardiomyocytes, C57BL/6 mouse; dose not given, 0.324 s).
`CC1=C(Cn2cc(COC3COC3)nn2)C(=O)c2ccccc2C1=O` has a killing of 47% (Schistosoma mansoni; adult worms; 25 µM, 24 h).
Under “phenotypic severity score”, `COc1ccc(Nc2cnnc3ccc(-c4ccc(N5CCN(C)CC5)cc4)cc23)cc1Cl` is recorded as 0 (Schistosoma mansoni; adult worms; 10 µM, 5 h; direction not given).
`O=C(NC[C@H]1CN(c2ccc(N3CCOCC3=O)cc2)C(=O)O1)c1ccc(Cl)s1` gave an inhibition of -31.4% (Nedd8-cullin1 interaction; neddylation, AlphaScreen; 100 µM).
`CN1CCN(S(=O)(=O)c2ccc(-c3ccc4nncc(Nc5cnccn5)c4c3)cc2)CC1` — result for “phenotypic severity score”: 0 (Schistosoma mansoni; adult worms; 10 µM, 1 h; direction not given).
`CO[C@]12C[C@@H](COC(=O)c3cncc(Br)c3)CN(C)[C@@H]1Cc1cn(C)c3cccc2c13` gave an inhibition of -3.5% (Nedd8-cullin1 interaction; neddylation, AlphaScreen; 100 µM).

Repeated from above:
`CC1=C(Cn2ccnc2[N+](=O)[O-])C(=O)c2ccccc2C1=O` gave a killing of 43.5% (Schistosoma mansoni; adult worms; 10 µM, 48 h).
`CN1CCN(S(=O)(=O)c2ccc(-c3ccc4nncc(Nc5cnccn5)c4c3)cc2)CC1` — result for “phenotypic severity score”: 0 (Schistosoma mansoni; adult worms; 10 µM, 1 h; direction not given).
`N#Cc1ccn2c(-c3ccncc3)c(-c3ccc(F)cc3)nc2c1`: “log2 fold change” 0.279 (kinase binding, competitor, MIB/MS competition, measured: CEK1; Candida albicans cell lysate; 1 µM; relative to: DMSO).
